# Measurements of several laboratories.
# Each numbered part is a random draw from the data of one study; scales do not carry over between parts.

# Study 1 — method: RNA Bind-n-Seq; molecule type: RNA; sample: in vitro; concentration: not given; setting: RNA with constant flanks, ends assumed; reference: input RNA pool; direction: higher = stronger binding
# Target: RING finger protein unkempt homolog, zinc fingers 1-6, GST-SBP tag (UNK, Homo sapiens, UniProt Q9C0B0, residues 30-357)
# Sequence of UniProt Q9C0B0 (30-357, looked up): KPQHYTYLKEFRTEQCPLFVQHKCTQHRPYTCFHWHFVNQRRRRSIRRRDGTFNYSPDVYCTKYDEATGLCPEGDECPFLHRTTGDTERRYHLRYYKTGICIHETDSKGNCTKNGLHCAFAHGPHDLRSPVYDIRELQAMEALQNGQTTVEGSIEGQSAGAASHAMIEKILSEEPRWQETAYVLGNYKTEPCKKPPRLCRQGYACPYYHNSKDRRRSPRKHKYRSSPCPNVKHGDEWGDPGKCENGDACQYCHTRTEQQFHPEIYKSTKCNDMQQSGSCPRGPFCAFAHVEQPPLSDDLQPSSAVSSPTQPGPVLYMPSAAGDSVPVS
# Shared flanks, not repeated: GGGAGUUCUACAGUCCGACGAUC … CAACAGAGGAUUGAGCAUCA
Sequence,bound/input enrichment
GCUGGGGCAGAGCUCAGCACCCUCAGCCCUGCGGCCGUUCAUCUUGUGUGUUUGUGACUUACUUUUGCCGCCUGUCAUCUUCUGGGCCCAGAGUCAGGGUCUCUGUGUCCCCUGUGCCUC,0.248 ratio
GACUCUCAUGUCAUUUGUAUACCUGUGGAUCUGCCCUGUAUUGUUAAUUCUAUUUUACAAAACCGAGGAAGUGUCUAAUAUAUGUGCAUAGUCAGUUGUCCUUUUUGAAAAAUAGGUUGA,0.345 ratio
AUUGACAAGUGCAGACAGCAGCUUCAUGAUAUUACUGUACCGUUAGAAGUUUUUGAAUAUACCGAUCAAGGUCGAAAUCCCCAGCUCUACACCAAAGAGUGCCUGGAGAGGGCUCUAGCU,1.95 ratio
AUGGGCUUUCAUGUUAUCUAUAAGACACCUUGUGGUCUCUGCCUUCGGACAAUGCAGGAGACCGAACGCUACCUUUUCGAGACUGGCUGUGACUUCCUCUUCCUGGAGAUGUUCUGUUUG,0.357 ratio
UUCAAAAUUGGAGCAUGUCGUCAUGGAGACAGGUGCUCUCGGUUGCACAAUAAACCGACGUUCCGCCAGACCAUUGCCCUCUUGAACAUUUACCGUAACCCUCAAAACUCUUCCCAGUCU,0.117 ratio

# Study 2 — method: universal PBM; molecule type: double-stranded DNA, one strand shown; sample: in vitro; concentration: not given; direction: higher = stronger binding
# Target: Sal-like protein 4, full length isoform B (SALL4, Homo sapiens, UniProt Q9UJQ4-2, residues 1-616)
# Setting: 8-mer, flanks averaged, mean of replicates
Sequence,E-score
GGGTAGAA,-0.0139
CACCTCCC,-0.197
ATAAAACG,0.241
CCAGTAGC,-0.119
CTTATAGA,0.235
GGGATGCA,-0.139
CGATTGAG,-0.0544
GGGACCCA,-0.236
ACATGCTC,0.0639
AGATCAAG,-0.00899
CATTCATC,0.136

# Study 3 — method: RNA Bind-n-Seq; molecule type: RNA; sample: in vitro; concentration: 365 nM; reference: no-protein control; direction: higher = stronger binding
# Target: RNA binding protein fox-1 homolog 2, RRM domain, GST-SBP tag (RBFOX2, Homo sapiens, UniProt O43251-10, residues 100-194)
# Setting: natural RNA segment, single round, ends assumed
# Shared flanks, not repeated: GGGAGUUCUACAGUCCGACGAUC … UGGAAUUCUCGGGUGCCAA
# Residues (chain): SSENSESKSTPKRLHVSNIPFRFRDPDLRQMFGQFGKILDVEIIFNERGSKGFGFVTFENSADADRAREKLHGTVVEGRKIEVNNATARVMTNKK
Sequence,RBNS enrichment (R)
AGAGAAGGCUGCAGGGAGGGGAGAGAACAGGAGGAUCCCGGGCCAGGGUGACUUCAGUGACAUUCCUUCCCUCCUUCACAAGCACGAAAAACUCGUUCGGAGAAAAGACA,5.3
AGCGGCCACCAACUGACCUGGGGCGCUGCUCCCCACAGUCCAAAUAAGCUGAAAGUGCAGCUCGCUGCAGGCCCCAGAGCGAGCUUCCCCUCCUCCCUGCUCUCCCAGGC,0.478
GGAAGGGCCCAUAGCCACUUCCUCUGCUCCUGAGCAGGGCUGAAGCCGUUUGCAAGGGACUUGCUUUGCACAGUUUUGCUGUACUUUCACAUUUUAUUAUGUAGCAAGAU,0.257
UUCAUGGGCUCAUCUUUAAAGCUUUUACUAAAAGAUUUUCAGCUGAAUGGAACUCAUUAGCUGUGUGCAUAUAAAAAGAUCACAUCAGGUGGAUGGAGAGACAUUUGAUC,0.592
GCCUUCUUAGGCUCUGUCGUGUGACUUUUCAGAUUAUAAAUGCCACAGCACGUGCUGUUUGAGAAGACGUGUUUUUGUUCUUAGUCUGUGUAUACAGUUCUCAGGGGUGG,0.667
ACUGUAGAAGCCAUUUUGAAGGAUUUGGCUUUUUAUUGUUUGUGGCAUUAAUAAGGGAGCUUACCAUUCUGGUGGGAUGUGCAUGAGGCGUUCACAGCCCCCAUACAUGG,3.05
GCCCCAGUAGUUGACAGCCUUGCUCCUCUCCCAAGUUCUCCUUCAGAACCUAGUUGCUUUUAUUCUUCCAGCUACCACUUGGGCACUUCACAGCCAGCCUAGGGUCUUCG,0.609

# Other studies, line by line
Molecule,target,assay,test system,setting,scale,measurement,value
"PhoQ, residues 284 288 289 292 302 303 WVSSAF","PhoP, residues 12 14 15 18 19 TQAIL (Escherichia coli, UniProt P23836)","Sort-seq, measured: YFP reporter",E. coli,"PhoQ-PhoP variant library, together with: 10 µM Mg2+","reference: high Mg2+ state, higher = stronger signaling",fold induction,9.96

# For quick reference, copied from above (study 2):
Sequence,E-score
ACATGCTC,0.0639
